Experimental data from different studies.
Protocols differ between the studies behind these lines. ± marks the error that the study gave.
Chain of UniProt P08684 (whole entry, looked up): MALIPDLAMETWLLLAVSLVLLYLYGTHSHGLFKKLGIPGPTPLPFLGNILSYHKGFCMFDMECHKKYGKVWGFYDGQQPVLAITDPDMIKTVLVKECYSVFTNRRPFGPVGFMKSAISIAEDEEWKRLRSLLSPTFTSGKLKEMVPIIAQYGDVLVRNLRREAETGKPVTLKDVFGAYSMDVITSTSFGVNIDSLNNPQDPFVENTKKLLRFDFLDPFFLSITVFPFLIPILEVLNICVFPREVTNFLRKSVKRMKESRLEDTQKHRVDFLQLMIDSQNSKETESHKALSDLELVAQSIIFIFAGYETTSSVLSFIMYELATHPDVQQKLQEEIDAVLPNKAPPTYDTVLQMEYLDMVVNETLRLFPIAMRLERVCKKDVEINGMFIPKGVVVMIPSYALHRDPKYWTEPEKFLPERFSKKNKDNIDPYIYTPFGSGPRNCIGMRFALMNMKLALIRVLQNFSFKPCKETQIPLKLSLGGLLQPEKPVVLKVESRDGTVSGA

SMILES | tested on | test | system | setting | scale | quantity | result
CC(C)c1cnc(-c2cc(Cl)ccc2F)cc1Nc1ccncc1C(=O)NC(CO)CO | – | flow cytometry, measured: pSMAD2/3 | patients, peripheral monocytes | 375 mg | – | inhibition | 75%
CC(=O)[O-].O.O.O.O.[Co+2].[O-]c1ccc(Br)cc1C=NCCN1CCOCC1 | Shigella flexneri | – | – | 20 µL of 100 µM per disc | – | inhibition zone diameter | 17 mm
N=C(N)NCCC[C@@H]1NC(=O)[C@H](CCCCNC(=O)CC[C@H](NC(=O)CC[C@H](NC(=O)CN2CCN(CC(=O)O)CCN(CC(=O)O)CCN(CC(=O)O)CC2)C(=O)N[C@@H](CCC(=O)NCCCC[C@@H]2NC(=O)[C@@H](Cc3ccccc3)NC(=O)[C@H](CC(=O)O)NC(=O)CNC(=O)[C@H](CCCNC(=N)N)NC2=O)C(=O)NCCCC[C@@H]2NC(=O)[C@@H](Cc3ccccc3)NC(=O)[C@H](CC(=O)O)NC(=O)CNC(=O)[C@H](CCCNC(=N)N)NC2=O)C(=O)NCCCC[C@@H]2NC(=O)[C@@H](Cc3ccccc3)NC(=O)[C@H](CC(=O)O)NC(=O)CNC(=O)[C@H](CCCNC(=N)N)NC2=O)NC(=O)[C@@H](Cc2ccccc2)NC(=O)[C@H](CC(=O)O)NC(=O)CNC1=O [indium-111 labelled] | – | – | female athymic nu/nu mice, U87MG tumour | intravenous, 111 kBq, 24 h | – | tissue uptake | 5.84 ± 1.09 %ID/g
[64Cu+2].c1ccc(CNCc2ccc(CN3CCCN4CCNCCCN(CC4)CC3)cc2)nc1 | CXCR4 | – | NOD/SCID mouse, U87 and U87-stb-CXCR4 xenografts, lungs | iv, 30 min, ex vivo | – | tissue uptake | 14.7 ± 3.21 %ID/g
COc1cc(CNC(=O)C[C@H](C)CCC=C(C)C)ccc1OCc1cn(-c2cccc(Cl)c2)nn1 | SR leukaemia cells | SRB | – | 10 µM, 48 h | – | growth percent | 61.4%
CCc1c(C)[nH]c(C=NC23CC4CC(CC(C4)C2)C3)c1C | Plasmodium yoelii | – | Kenya strain MRA-428, mice | oral, 5 mg/kg daily for 4 days, day 5 | – | parasitaemia suppression | 24%
O=Cc1c(O)ccc2ccccc12 | HUVEC | RNA sequencing, measured: NGFR | – | 75 µM, 24 h | reference: DMSO | log2 fold change | 3.41
CC(C)(O)c1ccc(N2Cc3c(ccnc3-c3ccc(F)cc3OCC(F)(F)F)C2=O)cc1 | – | – | Gaucher disease mouse model, brain | 30 mg/kg, 2 months once daily | reference: vehicle | glucosylceramide level | 40 ± 3%
Cc1nc(C)c(C=[N+]([O-])C(C)(C)C)nc1C | – | Western blot, measured: Nrf2 | mouse, MPTP model, substantia nigra cytosol | 30 mg/kg | – | protein level increase | 85.3%
CSCC[C@H](NC(=O)[C@H](CC(C)C)NC(=O)[C@H](Cc1c[nH]cn1)NC(=O)CNC(=O)[C@@H](NC(=O)[C@H](C)NC(=O)[C@H](Cc1c[nH]c2ccccc12)NC(=O)[C@H](CCC(N)=O)NC(=O)CCOCCOCCOCCOCCNC(=O)CN1CCN(CC(=O)O)CCN(CC(=O)O)CCN(CC(=O)O)CC1)C(C)C)C(N)=O [indium-111 labelled] | – | radio-HPLC | male Swiss nu/nu mice, blood | intravenous, 1 nmol, 15 min | – | intact peptide | 1.8 ± 0.6%
[64Cu+2].c1cnc(CNCc2ccc(CN3CCCN4CCNCCCN(CC4)CC3)cc2)nc1 | CXCR4 | – | NOD/SCID mouse, U87 and U87-stb-CXCR4 xenografts, pancreas | iv, 120 min, ex vivo | – | tissue uptake | 1.88 ± 0.32 %ID/g
COc1cc(CNC(=O)C[C@H](C)CCC=C(C)C)ccc1O | MDA-MB-468 breast cancer cells | SRB | – | 10 µM, 48 h | – | growth percent | 99%
COC1=CC(c2ccc[nH]2)=NC1=Cc1[nH]c(Cc2ccc(Cl)cc2)cc1Cc1ccc(Cl)cc1 | Plasmodium yoelii | – | Kenya strain MRA-428, mice | oral, 25 mg/kg daily for 4 days, day 5 | – | parasitaemia suppression | 100%
COc1ccc2cc(NC(=O)c3cc(-c4cccnc4)nc4ccccc34)ccc2c1 | Cytochrome P450 3A4 (CYP3A4, Homo sapiens, UniProt P08684) | substrate, LC-MS, measured: hydroxylated metabolite M2 | baculosomes | – | – | Km | 5.3 µM
COc1cc(CNC(=O)C[C@H](C)CCC=C(C)C)ccc1OCc1cn(-c2ccccc2[N+](=O)[O-])nn1 | OVCAR-3 ovarian cancer cells | SRB | – | 10 µM, 48 h | – | growth percent | 80.3%

For quick reference, copied from above:
SMILES | tested on | test | system | setting | scale | quantity | result
CC(C)(O)c1ccc(N2Cc3c(ccnc3-c3ccc(F)cc3OCC(F)(F)F)C2=O)cc1 | – | – | Gaucher disease mouse model, brain | 30 mg/kg, 2 months once daily | reference: vehicle | glucosylceramide level | 40 ± 3%
